Results of several laboratories.
Compare with care: the assays were run in different laboratories.

CC(C)C[C@@H]1NC(=O)[C@@H](Cc2ccccc2)NC(=O)[C@H](CCN)NC(=O)[C@@H](NC(=O)[C@H](CCN)NC(=O)[C@@H](N)[C@@H](C)O)CCNC(=O)[C@H]([C@@H](C)O)NC(=O)[C@H](CCN)NC(=O)[C@H](CCN)NC1=O
MIC (Escherichia coli; MIC of compound in combination, checkerboard; W3110; concentration not given, added: rifampicin): 6.25 µg/mL

N#CC(=C1C=CC(=NOC(=O)OCc2ccccc2)C=C1)c1ccccc1
MIC (Clavispora lusitaniae; broth dilution; ATCC 34449; 48 h, 37 °C): 128 µg/mL

C[C@@H](c1ncncc1F)[C@](O)(Cn1cncn1)c1ccc(F)cc1F
MIC (Blastomyces dermatitidis; BD-1): 0.06 µg/mL

CC1(C)S[C@@H]2[C@H](NC(=O)[C@H](N)c3ccccc3)C(=O)N2[C@H]1C(=O)O
MIC (Pseudomonas aeruginosa; clinical isolate RKI-No_479/15): > 16 µg/mL

CC1(C)S[C@@H]2[C@H](NC(=O)[C@H](N)c3ccc(O)cc3)C(=O)N2[C@H]1C(=O)O
MIC (Serratia marcescens; broth microdilution; MTCC 4301): 8 µg/mL

N#CC(=C1C=CC(=NOC(=O)c2ccccc2)C=C1)c1ccccc1
MIC (Clavispora lusitaniae; broth dilution; ATCC 34449; 48 h, 37 °C): 128 µg/mL

Cc1ccc(C(C)C)c(OC2=C(Cl)C(=O)c3ccccc3C2=O)c1
MIC (Serratia marcescens; broth microdilution; MTCC 4301): 10 µg/mL

CNC(C)C1CCC(N)C(OC2C(N)CC(N)C(OC3OCC(C)(O)C(NC)C3O)C2O)O1 (stereo not shown)
MIC (Pseudomonas aeruginosa; clinical isolate RKI-No_254/15): 4 µg/mL

CCCCCCCCCC(=O)N[C@@H](Cc1c[nH]c2ccccc12)C(=O)N[C@H](CC(N)=O)C(=O)N[C@@H](CC(=O)O)C(=O)N[C@@H]1C(=O)NCC(=O)N[C@@H](CCCN)C(=O)N[C@@H](CC(=O)O)C(=O)N[C@H](C)C(=O)N[C@@H](CC(=O)O)C(=O)NCC(=O)N[C@H](CO)C(=O)N[C@@H]([C@H](C)CC(=O)O)C(=O)N[C@@H](CC(=O)c2ccccc2N)C(=O)O[C@@H]1C
MIC (Staphylococcus aureus; SH1000; added: N-acetylsphingosine, molar ratio 2): 1 µg/mL

N=C(N)c1ccc(OCc2ccc(-c3ccccc3)cc2COc2ccc(C(=N)N)cc2)cc1
MIC (Escherichia coli; 552100; in combination, checkerboard, added: rifampicin): 6.25 µg/mL

CN[C@H](CC(C)C)C(=O)N[C@H]1C(=O)N[C@@H](CC(N)=O)C(=O)N[C@H]2C(=O)N[C@H]3C(=O)N[C@H](C(=O)N[C@H](C(=O)O)c4cc(O)cc(O)c4-c4cc3ccc4O)[C@H](O)c3ccc(c(Cl)c3)Oc3cc2cc(c3O[C@@H]2O[C@H](CO)[C@@H](O)[C@H](O)[C@H]2O[C@H]2C[C@](C)(N)[C@H](O)[C@H](C)O2)Oc2ccc(cc2Cl)[C@H]1O
MIC (Streptococcus pyogenes; ATCC 13813; 1 strain): 0.5 µg/mL

N=C(N)c1ccc(OCc2ccccc2COc2ccc(C(=N)N)cc2)cc1
MIC (Escherichia coli; BW25113; compound alone, novobiocin checkerboard): > 200 µg/mL

CC1(C)SC2C(NC(=O)C(NC(=O)C3=C(O)C(Cc4ccc(F)cc4)NC3=O)c3ccccc3)C(=O)N2C1C(=O)O (stereo not shown)
MIC (Escherichia coli; broth microdilution; ATCC 25922 wild type; added: clavulanic acid 6 µg/mL): 12.5 µg/mL

C#CCON=C1C=CC(=C(C#N)c2ccccc2)C=C1
MIC (Clavispora lusitaniae; broth dilution; ATCC 34449; 48 h, 37 °C): 64 µg/mL

CCCCCCCCCC(=O)N[C@@H](Cc1c[nH]c2ccccc12)C(=O)N[C@H](CC(N)=O)C(=O)N[C@@H](CC(=O)O)C(=O)N[C@@H]1C(=O)NCC(=O)N[C@@H](CCCN)C(=O)N[C@@H](CC(=O)O)C(=O)N[C@H](C)C(=O)N[C@@H](CC(=O)O)C(=O)NCC(=O)N[C@H](CO)C(=O)N[C@@H]([C@H](C)CC(=O)O)C(=O)N[C@@H](CC(=O)c2ccccc2N)C(=O)O[C@@H]1C
MIC (Staphylococcus aureus; broth microdilution; MRSA USA300, Mueller-Hinton broth, Mg2+ 10 mg/L; 16 h, 37 °C, added: Ca2+ 2.5 mM): 0.25 µg/mL

C[C@H]1[C@H](NC(=O)/C(=N\OC(C)(C)C(=O)O)c2csc(N)n2)C(=O)N1S(=O)(=O)O
MIC (Serratia marcescens; agar dilution; ATCC 21074 susceptible): 0.125 µg/mL

CC1(C)SC2C(NC(=O)C(NC(=O)C3=C(O)C(Cc4ccc(O)cc4)NC3=O)c3ccccc3)C(=O)N2C1C(=O)O (stereo not shown)
MIC (Escherichia coli; broth microdilution; ATCC 25922 wild type; no clavulanic acid): 12.5 µg/mL

CC(=O)ON=C1C=CC(=C(C#N)c2ccccc2)C=C1
MIC (Clavispora lusitaniae; broth dilution; ATCC 34449; 48 h, 37 °C): 64 µg/mL

N=C(N)c1cccc(OCc2ccc(COc3cccc(C(=N)N)c3)cc2)c1
MIC (Escherichia coli; mcr-3 polymyxin-resistant; compound alone): > 200 µg/mL

Cc1ccc(CCC(=O)Nc2nnc(S(N)(=O)=O)s2)cc1
MIC (Lactobacillus gasseri; ATCC 19992): > 784 µM

N=C(N)c1ccc(OCc2cc(COc3ccc(C(=N)N)cc3)cc(-c3ccccc3)c2)cc1
MIC (Escherichia coli; mcr-3 polymyxin-resistant; compound alone): 200 µg/mL

CCCCCCC#Cc1cncc(-c2nnc(SCc3ccc(C#N)cc3)n2C)c1
MIC (Mycolicibacterium smegmatis; no activity below value): ≥ 100 µM

Repeated from above:
CCCCCCC#Cc1cncc(-c2nnc(SCc3ccc(C#N)cc3)n2C)c1
MIC (Mycolicibacterium smegmatis; no activity below value): ≥ 100 µM

N=C(N)c1cccc(OCc2ccc(COc3cccc(C(=N)N)c3)cc2)c1
MIC (Escherichia coli; mcr-3 polymyxin-resistant; compound alone): > 200 µg/mL

CC(=O)ON=C1C=CC(=C(C#N)c2ccccc2)C=C1
MIC (Clavispora lusitaniae; broth dilution; ATCC 34449; 48 h, 37 °C): 64 µg/mL
